Assay results from different studies.
Parts stem from different laboratories: compare values within a part only.

Set 1
Target: Prothrombin, mature alpha-thrombin (F2, Homo sapiens, UniProt P00734)
Method: aptamer microarray, sandwich
Form: DNA with 2'F-ANA
Sample: in vitro
Tested at: 200 nM
Setting: whole 15-mer aptamer, many near background
Together with: Cy3 exosite-II aptamer, 400 nM
Direction: higher = stronger binding
Oligonucleotide: GGTTGGTGTGGTTGG
Modification | mean fluorescence intensity [a.u.]
2'F-ANA at 1 7 9 10 11 12 | 64.5
2'F-ANA at 1 3 5 6 7 12 15 | 129
2'F-ANA at 2 3 4 7 8 9 12 14 | 347
2'F-ANA at 1 3 7 8 9 11 12 14 | 119
2'F-ANA at 1 2 5 6 7 9 10 11 13 14 | 52.5
2'F-ANA at 1 4 5 8 9 10 11 | 48.4
2'F-ANA at 1 3 5 9 15 | 64.7
2'F-ANA at 2 4 8 10 11 12 13 | 92.2
2'F-ANA at 3 5 6 7 8 9 10 13 14 | 50.7
2'F-ANA at 1 3 4 5 8 11 14 | 110
2'F-ANA at 1 2 5 8 12 13 14 | 50
2'F-ANA at 2 3 6 9 11 12 13 14 15 | 359
2'F-ANA at 1 5 6 7 8 9 12 | 115
2'F-ANA at 1 3 5 7 8 9 11 12 13 14 | 45.8
2'F-ANA at 6 10 11 14 | 116
2'F-ANA at 2 3 7 10 12 13 15 | 461
2'F-ANA at 3 6 7 8 12 14 15 | 671
2'F-ANA at 4 5 6 7 8 12 13 15 | 96
2'F-ANA at 1 4 6 9 14 15 | 59.8
2'F-ANA at 1 2 3 5 6 8 12 | 165
2'F-ANA at 1 2 5 9 12 14 | 47.5
2'F-ANA at 2 4 5 9 10 12 | 51.6
2'F-ANA at 1 2 3 4 6 7 8 9 10 13 14 | 50.6
2'F-ANA at 1 3 4 8 9 10 12 14 15 | 51.6
2'F-ANA at 5 6 11 13 | 56.8

Set 2
Target: RNA binding protein fox-1 homolog 2, RRM domain, GST-SBP tag (RBFOX2, Homo sapiens, UniProt O43251-10, residues 100-194)
Method: RNA Bind-n-Seq
Form: RNA
Sample: in vitro
Tested at: 365 nM
Setting: natural RNA segment, single round, ends assumed
Baseline: no-protein control
Direction: higher = stronger binding
Constant ends, left off below: GGGAGUUCUACAGUCCGACGAUC … UGGAAUUCUCGGGUGCCAA
Residues (chain): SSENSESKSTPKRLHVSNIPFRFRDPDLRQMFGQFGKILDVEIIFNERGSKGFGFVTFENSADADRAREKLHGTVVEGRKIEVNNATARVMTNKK
Oligonucleotide | RBNS enrichment (R)
UCCAAUAGUUGUGUUUGCCCAAGCCUUUCUCGGCAUCAUCUUGUAUUCCUUAUCAGAUAGUAAGUAACCUGUAAGUUUGGAGUAUUACUGUUUUCUCAGCAUGCAUUAAA | 30.7
CCUUCUCCAGCCGCCCUUCACUGCAGAGAACCGGAAGAAAACUAUGGAUAAAAUCAUUAAAGGGAAGCUGGUGCUGCCCCCCUACCUCACCCCGGAUGCCCGGGACCUUG | 0.492
AUUUGAACUUUUCAAGAAGUAGGUCCUAGUACUUGGGAUCUUGUUAGAUCUGUGCUCUGGAGGUGGUCUGCGUGAUUAGUGUUAGUGUAUGGUUUGGUGGUCUUUAAUGU | 1.73
UACAGGUGGAUAGGGAUGCAGGGGCAGCCUUUCCCCGGGAAUCUGACUGGUCCGCACAACACACCCACUGCUCAGUUUCCUGAGAAGAGAGAUCUCAAGACAUUUUAAUA | 0.55
GUUAUGAAUGAAAAUCAAACGAAGAUCCAAGCUGUACUGAUGUCAGAGGGAUGGUUCCAUUUUGACAGUGACUUUGGUUUUUUCCUCCGUAUAGAUUCAUCGUGUAGUUC | 0.341
UCAGGUCAGGUGGCCCACCACCCUCUGGAAGCCAGGUGCCCACCCCACCUCCAGCUCUGCUGGCAAUCUCCCUCCCCCAAGGCAAACUGGCCAGCAGGAGUGCUUCACAG | 0.301
CACAGCUCACUGCAGCCUCCAUCUCCUAGGCUCAAGCCAUUUUCCCACCUCAGCCUCCCGAGUAGCUGGGACUACAGGUGCACACCACCACACCUGGCUAAUUUUUUGUA | 0.88
CCACCCAGCUCGGCCGUGGUGUAUUGUGGUCACUGCUGCUCCCUCUCCUUUACCCCCCACCCCCAUUUUGUUUUUGUAAACCAUCCCGUCCACAGUUGUCAGUUGUGAAG | 2.45
AACAGGCAGUUCUUGGAGAAGAAAGAGCAUUUCUUUAAGUACCUGGGGAAUACAGCUCUCAGUGAUCAGCAGGGAGUUUAUUUGAGGACAUCAGUCACCUUUGGGGUUGC | 0.659
CAUCCUCACACCUGUUCCCUCCAGAGGGCCCGGCUCCCUGCAUCAGGCAGCAGCCGCCCAUCUCGCCCCAACUGUUGGCUCCAGGCAGGGCUGGGCAGCAGGGAGCCUGG | 0.357
AGAGCCCAGAAAGAUUUUAGGACCCAGGAGGUGCUUUUCCUCCAGCUGUUGCCAGUGUCCUUCUGAGCCUGGAUUCUCCGGGGAUUUCCGUCGUGGUGGAUGGACUUCAC | 0.318
UCAGUGACUGCCUGUACCUGUGCAACCCUCGCUUGCUCCUUGGAGAACCUGACAGGACGCUGAAGAUGUGCGGGCAGUUGUGCACCGUCAGUGAGGGAGAGAGACCCCGA | 0.502

Set 3
Target: RING finger protein unkempt homolog, zinc fingers 1-6, GST-SBP tag (UNK, Homo sapiens, UniProt Q9C0B0, residues 30-357)
Chain of UniProt Q9C0B0 (30-357, looked up): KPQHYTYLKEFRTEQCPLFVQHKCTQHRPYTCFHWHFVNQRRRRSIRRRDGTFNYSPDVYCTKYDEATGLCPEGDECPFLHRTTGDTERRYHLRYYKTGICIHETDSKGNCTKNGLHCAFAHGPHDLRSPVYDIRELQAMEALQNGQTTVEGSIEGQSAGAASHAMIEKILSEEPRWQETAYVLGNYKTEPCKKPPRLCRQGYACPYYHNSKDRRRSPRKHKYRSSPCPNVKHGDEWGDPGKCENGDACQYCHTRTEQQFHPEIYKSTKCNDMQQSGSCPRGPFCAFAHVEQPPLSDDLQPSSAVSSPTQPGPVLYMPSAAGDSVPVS
Method: RNA Bind-n-Seq
Form: RNA
Sample: in vitro
Tested at: not given
Setting: RNA with constant flanks, human and mouse sites, ends assumed
Baseline: input RNA pool
Direction: higher = stronger binding
Constant ends, left off below: GGGAGUUCUACAGUCCGACGAUC … CAACAGAGGAUUGAGCAUCA
Oligonucleotide | bound/input enrichment
AAUAAGCAUGUUAUGUAUAUUGUCUCGUGUUUUUAUUUUUACACCAUAUUGUAUUACACUUUUAGUAUUCACCAGCAUAAUCACUGUCUGCCUAAAAUAUGCAACUCUUUGCAUUACAAU | 3.32 ratio
CCGUUUCUAGUAUAUUCCUGUAAAUGUCAGUUACUGAAAAUGAGUCCAAUGUAAGUAGUUUAGCUUGUUUAUUGCAAUGCUGGCCUCAACACAACAGAAUAAAAAUGGUAGAAAGUACUC | 0.712 ratio
AUAGAGAGAACCCUUCAAAUUCAGAAAGCUCAUGGUGACCACAUGGCUUCCUCUAGAAAUAAUUCUGUAUCUGGACUAUCAGUCAAAUCAAAAAAUAAUACCAAACAAAAGCUUCCUGUG | 1.37 ratio
AAUGUGUCCAUGCAAAAUGCUGUGAAUGAGCCUGUACAGAAACUAAUGCGGAAAAAGCAAUUAGACGUAGCAGAAUUUAGCAUCUAUUGGGAUGUCGAUUGCACUUUACUGGGGGAUUUG | 0.587 ratio
GAUACAGUAAUUAUGAAUCCUCCCUUUGGGACCAAAAAUAAUAAAGGGACAGAUAUGGCUUUUCUAAAGACUGCUUUGGAAAUGGCAAGAACAGCAGUAUAUUCCUUACACAAAUCCUCA | 0.138 ratio
UAUGCUACAAAAAUUUCUCGUUUUUCAAAUGUCUAUCAUCUCUCAAUUCAUAUUUCAAAAAACUUCGGAGCAGAUACGACAAAGGUCUUUUAUAUUGGCCUGAGAGGAGAGUGGACUGAG | 0.318 ratio
AACUGGUGCAGCGCUGUCAGCAGGCAUACAUGCAGUACAUCCAUCACCGCUUAAUUCACCUGACUCCUGCCGACUACGACGACUUUGUGAAUGCAAUCCGCAGCGCUCGCAGCGCCUUCU | 0.123 ratio
AAAGGUGACAAGGCUCUUGAUGGCUACAGUAAAAAGAAGUAUGUCUGCAAAUUGCUCUUCAUCUUUCUCCUUGGUCAUGACAUUGACUUUGGACACAUGGAAGCUGUGAAUCUUCUGAGC | 0.108 ratio
CAUUCUAUAAGUUGCAAAGAGAAGUUGAAUAAAAAAAAUAAACUAGGAGCUGCAUUUACUGACGAUGGUUUUGCCAUGGGUGUGGCUUAUACCUUAAAGCUUUUGGAUCAGUACCAAGAG | 0.945 ratio
AUGCUCCGCCAGAUCAUCGGUCAGGCCAAGAAGCAUCCGAGCUUGAUCCCCCUCUUUGUAUUUAUUGGAACUGGAGCUACUGGAGCAACACUGUAUCUCUUGCGUCUGGCAUUGUUCAAU | 0.121 ratio
AUUCAAGGCGAUAACCUAUUCAGUGGGUCCAGAGAUAAUGGAAUCAAGAAAUGGGACUUAGCUCAGAAAGGUCUUCUUCAGCAAGUCCCAAAUGCACACAAAGACUGGGUGUGUGCCCUG | 0.151 ratio

Set 4
Target: Sal-like protein 4, full length isoform A (SALL4, Homo sapiens, UniProt Q9UJQ4, residues 1-1053)
Chain of UniProt Q9UJQ4 (whole entry, looked up): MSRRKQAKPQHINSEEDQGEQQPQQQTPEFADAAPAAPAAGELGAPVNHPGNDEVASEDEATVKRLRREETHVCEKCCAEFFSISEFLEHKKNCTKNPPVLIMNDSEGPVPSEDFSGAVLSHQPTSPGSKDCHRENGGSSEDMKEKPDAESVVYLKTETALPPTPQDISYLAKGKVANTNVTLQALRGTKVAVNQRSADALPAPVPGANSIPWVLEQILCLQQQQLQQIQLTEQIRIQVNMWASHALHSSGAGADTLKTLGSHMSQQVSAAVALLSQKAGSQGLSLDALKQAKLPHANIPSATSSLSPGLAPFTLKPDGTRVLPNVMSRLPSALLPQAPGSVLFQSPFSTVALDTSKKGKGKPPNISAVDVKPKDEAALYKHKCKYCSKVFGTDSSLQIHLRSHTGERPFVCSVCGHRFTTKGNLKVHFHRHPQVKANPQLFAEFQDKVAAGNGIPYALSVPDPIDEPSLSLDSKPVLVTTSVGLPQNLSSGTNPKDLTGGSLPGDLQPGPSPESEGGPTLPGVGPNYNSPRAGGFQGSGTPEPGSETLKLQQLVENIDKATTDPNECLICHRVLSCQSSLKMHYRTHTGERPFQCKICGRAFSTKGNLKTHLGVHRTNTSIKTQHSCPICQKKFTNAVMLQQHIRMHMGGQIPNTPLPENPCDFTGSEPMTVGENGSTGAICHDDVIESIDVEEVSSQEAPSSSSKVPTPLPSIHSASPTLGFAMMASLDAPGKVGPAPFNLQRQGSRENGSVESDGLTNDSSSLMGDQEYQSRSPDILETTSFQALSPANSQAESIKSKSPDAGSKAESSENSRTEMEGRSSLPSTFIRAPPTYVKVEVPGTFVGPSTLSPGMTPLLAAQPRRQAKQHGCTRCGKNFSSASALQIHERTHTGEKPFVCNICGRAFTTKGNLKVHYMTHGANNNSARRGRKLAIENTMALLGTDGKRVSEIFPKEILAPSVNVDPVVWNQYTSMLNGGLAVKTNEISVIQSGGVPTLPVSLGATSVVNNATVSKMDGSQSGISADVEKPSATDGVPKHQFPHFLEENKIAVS
Method: universal PBM
Form: double-stranded DNA, one strand shown
Sample: in vitro
Tested at: 600 nM
Setting: 8-mer, flanks averaged, mean of replicates
Direction: higher = stronger binding
Oligonucleotide | E-score
CCCCATTA | -0.0249
TCTTCAAA | 0.266
GCCTAACC | -0.163
AACTCTGT | 0.0159
AGAGCGAT | -0.164
AAGTCAGC | -0.0492
CCATAGTA | 0.0192
GGTTCTTA | 0.057
ACCGGGTC | -0.346
ATGCTGAC | 0.0867
CTAAAGGA | 0.0389
AAGGGGGG | -0.37
ACGGCCTC | -0.272
CCAGTACC | -0.262
CATAAACA | 0.341
ACTTGCAC | -0.0373
CGCCTCAC | -0.243
ACTGACCC | -0.199
GTTGAAAC | 0.031
GATACGGC | -0.244
ACCCTACG | -0.122
AGCTCAAT | 0.0528

Set 5
Target: Histone acetyltransferase KAT6A, both winged helices, GST fusion (KAT6A, Homo sapiens, UniProt Q92794, residues 1-181)
Method: protein binding microarray
Form: double-stranded DNA, one strand shown
Sample: in vitro
Tested at: not given
Setting: 8-mer, flanks averaged, mean of 2 arrays, mostly near background
Baseline: not given
Direction: higher = stronger binding
Residues (chain): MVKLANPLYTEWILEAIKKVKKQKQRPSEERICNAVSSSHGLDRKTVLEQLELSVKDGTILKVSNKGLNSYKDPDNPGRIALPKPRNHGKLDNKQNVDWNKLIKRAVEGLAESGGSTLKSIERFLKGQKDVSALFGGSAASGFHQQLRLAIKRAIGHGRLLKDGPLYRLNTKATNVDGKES
Oligonucleotide | E-score
GTAATTAC | 0.0168
ATGGAGGC | -0.0685
AAGGAGAC | -0.0685
TCTTCACA | -0.174
AATCGAGC | -0.129
CAGAATAC | -0.0493
GAGCTATC | 0.0662
ACCGTTGA | 0.0813
ACTTTAGG | -0.174
GTGGGAAA | -0.22
AGTCGGGA | 0.149
AGCTTCGG | -0.00758
TCTAGACA | -0.00839
AGTCGGCG | 0.229
ACAAGTCC | -0.0496
TATCCGCA | 0.134
CAGCATGA | -0.274
CATATATG | -0.0681
ACAACCCA | -0.162
CTTAGCCA | -0.0252
CGGTGCAG | 0.198
AGCCCGAA | -0.0608
CATTCTCG | -0.0212
CGTGCCTC | 0.0623
AAACCGTA | 0.132

Excerpt of the above (set 4):
Oligonucleotide | E-score
ACGGCCTC | -0.272
CCAGTACC | -0.262
CATAAACA | 0.341
ACTTGCAC | -0.0373
CGCCTCAC | -0.243
ACTGACCC | -0.199
GTTGAAAC | 0.031
GATACGGC | -0.244
ACCCTACG | -0.122
AGCTCAAT | 0.0528
